Measured values of several laboratories.
Compare with care: the assays were run in different laboratories. Values joined by “and” are separate records of one study, mostly repeats; a detail may differ.
Organism: Bacillus subtilis

SMILES	test	test system	conditions	scale	measurement	result
N[C@@H](Cc1c[nH]cn1)C(=O)O	chemotaxis pathway, FRET	168			EC50	105 µM
Cc1ccc(C(C)C)c(OC2=C(Cl)C(=O)c3ccccc3C2=O)c1		MTCC 1427	10 µg/mL		zone of inhibition	17 mm
CC(=O)OCC1=C(C(=O)O)N2C(=O)[C@@H](NC(=O)Cc3cccs3)[C@H]2SC1	broth microdilution	ATCC 35021			MIC	6.25 µg/mL
CC1CCC(C(C)C)C(OC2=C(Cl)C(=O)c3ccccc3C2=O)C1 (centres unmarked)		MTCC 1427	10 µg/mL		zone of inhibition	16 mm
CO[C@H]1/C=C/O[C@@]2(C)Oc3c(C)c(O)c4c(O)c(c(/C=N/N5CCN(C)CC5)c(O)c4c3C2=O)NC(=O)/C(C)=C\C=C\[C@H](C)[C@H](O)[C@@H](C)[C@@H](O)[C@@H](C)[C@H](OC(C)=O)[C@@H]1C	bacterial cytological profiling	ATCC 6633	concentration not given		cell area	1.3 µm² and 1.34 µm² and 1.26 µm²
O=C1C(Cl)=C(n2cncn2)C(=O)c2ccccc21		MTCC 1427	10 µg/mL		zone of inhibition	14 mm
N#CC(C#N)=C1SC(C(=O)c2ccc(Nc3cnccn3)cc2)=NN1c1ccc([N+](=O)[O-])cc1	broth microdilution	ATCC 35021			MIC	3.12 µg/mL
CN[C@H](CC(C)C)C(=O)N[C@H]1C(=O)N[C@@H](CC(N)=O)C(=O)N[C@H]2C(=O)N[C@H]3C(=O)N[C@H](C(=O)N[C@H](C(=O)O)c4cc(O)cc(O)c4-c4cc3ccc4O)[C@H](O)c3ccc(c(Cl)c3)Oc3cc2cc(c3O[C@@H]2O[C@H](CO)[C@@H](O)[C@H](O)[C@H]2O[C@H]2C[C@](C)(N)[C@H](O)[C@H](C)O2)Oc2ccc(cc2Cl)[C@H]1O	broth microdilution	168, cation-adjusted Mueller-Hinton broth			MIC	0.168 µM
N=c1sc(C(=O)c2ccc(Nc3cnccn3)cc2)nn1-c1ccc([N+](=O)[O-])cc1	broth microdilution	ATCC 35021			MIC	6.25 µg/mL
C[C@@H](O)[C@H](N)C(=O)O	chemotaxis pathway, FRET	168			EC50	1.6 µM
NCCCC[C@H](NC(=O)[C@H](Cc1ccccc1)NC(=O)[C@H](CCC(N)=O)NC(=O)[C@H](Cc1ccccc1)NC(=O)[C@H](CCC(N)=O)NC(=O)[C@@H](N)Cc1ccccc1)C(N)=O	broth microdilution, optical density				MIC	520 µM
COc1cc(C=O)ccc1OC1=C(Cl)C(=O)c2ccccc2C1=O	broth microdilution	MTCC 1427			MIC	10 µg/mL
CC[C@H](C)CCCCC(=O)N[C@@H](CCN)C(=O)N[C@H](C(=O)N[C@@H](CCN)C(=O)N[C@H]1CCNC(=O)[C@H]([C@@H](C)O)NC(=O)[C@H](CCN)NC(=O)[C@H](CCN)NC(=O)[C@H](CC(C)C)NC(=O)[C@@H](CC(C)C)NC(=O)[C@H](CCN)NC1=O)[C@@H](C)O	broth microdilution	168, cation-adjusted Mueller-Hinton broth			MIC	7 µM
CC1=N/C(=C\c2cc(F)c(O)c(F)c2)C(=O)N1C	flow cytometry	IPTG-induced expressing strain	50 µM, cytoplasmic accumulation	baseline: uninduced cells	cellular fluorescence	600%
N=c1sc(C(=O)c2ccc(Nc3cnccn3)cc2)nn1-c1ccccc1	broth microdilution	ATCC 35021			MIC	50 µg/mL
NCC(=O)O	chemotaxis pathway, FRET	168			EC50	9.6 µM
COc1cccc2c1C(=O)c1c(O)c3c(c(O)c1C2=O)C[C@@](O)(C(=O)CO)C[C@@H]3O[C@H]1C[C@H](N)[C@H](O)[C@H](C)O1	bacterial cytological profiling	ATCC 6633			cell width	0.85 µm and 0.87 µm and 0.88 µm
O=C(O)[C@@H]1CCCN1	chemotaxis pathway				EC50	0.32 µM
O=C(O)c1cn(C2CC2)c2cc(N3CCNCC3)c(F)cc2c1=O	bacterial cytological profiling	ATCC 6633	concentration not given		cell perimeter	13.6 µm and 14.6 µm and 13.3 µm
C[C@H](N)C(=O)O	chemotaxis pathway, FRET	168			EC50	1.2 µM
CN(C)[C@@H]1C(O)=C(C(N)=O)C(=O)[C@@]2(O)C(O)=C3C(=O)c4c(O)cccc4[C@@](C)(O)[C@H]3C[C@@H]12	bacterial cytological profiling	ATCC 6633	concentration not given		cell length	2.64 µm and 2.81 µm and 2.6 µm
N#CC(C#N)=C1SC(C(=O)c2ccc(Nc3cnccn3)cc2)=NN1c1ccccc1	broth microdilution	ATCC 35021			MIC	50 µg/mL
CC1(C)S[C@@H]2[C@H](NC(=O)[C@H](N)c3ccc(O)cc3)C(=O)N2[C@H]1C(=O)O	broth microdilution	MTCC 1427			MIC	10 µg/mL
N[C@@H](CCC(=O)O)C(=O)O	chemotaxis pathway, FRET		168		EC50	> 1000 µM
CCCCCCCNC1=C(n2cncn2)C(=O)c2ccccc2C1=O		MTCC 1427	10 µg/mL		zone of inhibition	8 mm
CC(C)[C@H](N)C(=O)O	chemotaxis pathway, FRET	168			EC50	2.2 µM
CN[C@H](CC(C)C)C(=O)N[C@H]1C(=O)N[C@@H](CC(N)=O)C(=O)N[C@H]2C(=O)N[C@H]3C(=O)N[C@H](C(=O)N[C@H](C(=O)O)c4cc(O)cc(O)c4-c4cc3ccc4O)[C@H](O)c3ccc(c(Cl)c3)Oc3cc2cc(c3O[C@@H]2O[C@H](CO)[C@@H](O)[C@H](O)[C@H]2O[C@H]2C[C@](C)(N)[C@H](O)[C@H](C)O2)Oc2ccc(cc2Cl)[C@H]1O		ATCC 6633			MIC	0.7 µg/mL
CC1(C)S[C@@H]2[C@H](NC(=O)[C@H](N)c3ccccc3)C(=O)N2[C@H]1C(=O)O	bacterial cytological profiling	ATCC 6633	concentration not given		cell perimeter	9.41 µm and 9.74 µm and 8.98 µm
CC(C)C[C@H](N)C(=O)O	chemotaxis pathway, FRET	168			EC50	1.8 µM

For quick reference, copied from above:
SMILES	test	test system	conditions	scale	measurement	result
CC1CCC(C(C)C)C(OC2=C(Cl)C(=O)c3ccccc3C2=O)C1 (centres unmarked)		MTCC 1427	10 µg/mL		zone of inhibition	16 mm
CO[C@H]1/C=C/O[C@@]2(C)Oc3c(C)c(O)c4c(O)c(c(/C=N/N5CCN(C)CC5)c(O)c4c3C2=O)NC(=O)/C(C)=C\C=C\[C@H](C)[C@H](O)[C@@H](C)[C@@H](O)[C@@H](C)[C@H](OC(C)=O)[C@@H]1C	bacterial cytological profiling	ATCC 6633	concentration not given		cell area	1.3 µm² and 1.34 µm² and 1.26 µm²
